Published values from different studies.
A part holds a random share of what one study measured.

Block 1 — technique: protein-binding microarray; form: double-stranded DNA, one strand shown; matrix: in vitro; tested at: 2540 nM top; setting: 60-bp whole probe; added: salmon DNA 0.4 mg/ml; relative to: random background probes; reading: higher = stronger binding; constant ends, left off below: GCCTAGCAC … GTCTTGATTCGCTTGACGCTGCTG
Target: Interferon regulatory factor 3, full length, phosphomimetic (IRF3, Homo sapiens, UniProt Q14653, residues 1-427, S386D/S396D/S398D/S402D/T404D/S405D)
Target sequence (chain): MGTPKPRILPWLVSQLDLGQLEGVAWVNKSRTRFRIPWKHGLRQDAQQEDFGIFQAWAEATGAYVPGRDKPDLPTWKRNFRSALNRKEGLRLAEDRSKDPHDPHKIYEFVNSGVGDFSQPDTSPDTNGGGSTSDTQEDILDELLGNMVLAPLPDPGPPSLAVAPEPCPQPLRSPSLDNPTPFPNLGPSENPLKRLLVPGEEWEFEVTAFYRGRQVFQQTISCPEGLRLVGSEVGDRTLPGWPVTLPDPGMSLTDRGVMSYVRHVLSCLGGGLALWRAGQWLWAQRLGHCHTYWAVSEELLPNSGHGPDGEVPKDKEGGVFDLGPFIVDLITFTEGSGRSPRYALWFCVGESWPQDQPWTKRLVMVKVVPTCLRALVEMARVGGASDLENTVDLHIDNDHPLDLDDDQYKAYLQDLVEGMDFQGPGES
Sequence	fitted relative affinity
CCCTGTCTGTCCAGAAACCCGTGCTAG	0.564 z-score
GACGGTCTCCTTATCCGGACGTGCTAG	3.2 z-score
GACGGTATCCGGACTGGGGACGTGCTA	2.37 z-score
TTAGGAATGGACTTTCGGTTAGTGCTA	1.33 z-score
TTAGAACTGAGTATCGATCAGTGCTAG	-0.134 z-score
TTAGAACTCAGTTTCGATTAGTGCTAG	3.55 z-score
AAGATTCTAGCCTATAGAAGCGTGCTA	-0.322 z-score
TCATCTATCTCTGTTTTACTGTGCTAG	1.33 z-score
GACGGACTGAACTATCGGGACGTGCTA	-0.0099 z-score
GACGGTTTCGACTAACGGGACGTGCTA	2.64 z-score
GTGTTTGTCCCTATTTAAGAGTGCTAG	1.37 z-score
TTAGATTTCAGTATCGAGTAGTGCTAG	1.82 z-score
TCAATTTACATTTTAGTACTGTGCTAG	1.59 z-score
CTCCCATTATATTTTAATCAGTGCTAG	0.675 z-score
GACGGTATCAGTATCGGGACGTGCTAG	3.86 z-score
GACGATATGAGTTTCGAGACGTGCTAG	1.34 z-score
TCACATGTGGGTTCCATACTGTGCTAG	1.41 z-score
GACGAACTGAATATCGAGACGTGCTAG	0.352 z-score
GACTGTCTCCTTCTCCTGACGTGCTAG	4.1 z-score

Block 2 — technique: protein binding microarray; form: double-stranded DNA, one strand shown; matrix: in vitro; tested at: not given; relative to: not given; reading: higher = stronger binding
Target: Histone acetyltransferase KAT6A, both winged helices, GST fusion (KAT6A, Homo sapiens, UniProt Q92794, residues 1-181)
Setting: 8-mer, flanks averaged, mean of 2 arrays, mostly near background
Residues (chain): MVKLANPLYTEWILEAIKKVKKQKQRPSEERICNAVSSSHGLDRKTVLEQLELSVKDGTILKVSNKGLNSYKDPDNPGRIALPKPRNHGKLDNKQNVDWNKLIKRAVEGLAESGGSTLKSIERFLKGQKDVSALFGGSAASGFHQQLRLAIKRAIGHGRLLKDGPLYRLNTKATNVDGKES
Sequence	E-score
ATGAGCGC	0.271
AATGCTAA	-0.141
ACATAAGA	-0.0576
TATCAGCA	-0.126
AATCACGG	0.258
CGCTCTCC	0.0516
GTCTTTGA	-0.049
AAAAATAC	-0.11
ATTCATGC	-0.0515
CAGGTGAG	-0.26
CCTAAAGC	-0.0469
CTCCTGCA	-0.132
TCCATCAA	-0.155
ATAACCCA	-0.168
GCCTGTGA	-0.0618
CTATCGAC	0.00415
AAGCCCAT	-0.199

Block 3 — technique: RNA Bind-n-Seq; form: RNA; matrix: in vitro; tested at: 200 nM; setting: whole 134-nt RNA, ends assumed; added: 150 mM LiCl; relative to: input library; reading: higher = stronger binding; library: 7-deaza-guanosine replaces G
Target: Fragile X messenger ribonucleoprotein 1, C-terminal low-complexity region (Fmr1, Mus musculus, UniProt P35922)
Constant ends, left off below: GGGAGUUCUACAGUCCGACGAUC … UGGAAUUCUCGGGUGUCAAGG
Sequence	log2 enrichment
AGUCCUGUGCUACACAUCGUAUGUACCGAAUCGGGGUUUGGGGAAAAAGGGGUGGGGAAAGUAUUAUGUUACGCCGUUCGGAUCUGCACU	-1
CCUCAAGUCCUGUGCUACACAUCGUAUGUACCGAAUCGGGGUGGGUGGUGGGAAAGUAUUAUGUUACGCCGUUCGGAUCUGCACUUCCAG	-0.429
UCAAGUCCUGUGCUACACAUCGUAUGUACCGAAUCGGGCCCGGGCCCGGCCCGGGAAAGUAUUAUGUUACGCCGUUCGGAUCUGCACUUC	-2.27
UGGGAGGUGGAUUUUGUUUAUUUUUUUAGCUCAUUUCCAGGGGUGGGAAUUUUUUUUUAAGAUGUGUCAUGAAUAAAGUUGUUUUUGAAA	0.152
ACCAUGCUGGUGGGCAUCUUUGGGAAGUGGGGCAAGGGGGGGAUAGGGAGGGGGGUAACACUUUGGGAACAGGUGGUCCCAGGUCGUUUC	1.32
CCUGUGCUACACAUCGUAUGUACCGAAUCGGGGAAAAAAAGGGGAAAGGGGUUUUUGGGGAAAGUAUUAUGUUACGCCGUUCGGAUCUGC	0.445
ACCAUGCAGGUGGGCAUCUUUGGGAAGUGGGGCAAGGAAAGGAUAGGGAGGGGGGUAACACUUUGGGAACAGGUGGUCCCAGGUCGUUUC	0.654
UGUGGAUGCCCUGCUGAAGAAGUCUGAGGCCCAGCAUGAACAGCCGGAAGAUGGAUGCCCCUUUGGUGCCCUGACGCAGCGCCUCCUGCA	-0.358

Block 4 — technique: universal PBM; form: double-stranded DNA, one strand shown; matrix: in vitro; tested at: 600 nM; reading: higher = stronger binding
Target: Sal-like protein 4, full length isoform A (SALL4, Homo sapiens, UniProt Q9UJQ4, residues 1-1053)
Chain of UniProt Q9UJQ4 (whole entry, looked up): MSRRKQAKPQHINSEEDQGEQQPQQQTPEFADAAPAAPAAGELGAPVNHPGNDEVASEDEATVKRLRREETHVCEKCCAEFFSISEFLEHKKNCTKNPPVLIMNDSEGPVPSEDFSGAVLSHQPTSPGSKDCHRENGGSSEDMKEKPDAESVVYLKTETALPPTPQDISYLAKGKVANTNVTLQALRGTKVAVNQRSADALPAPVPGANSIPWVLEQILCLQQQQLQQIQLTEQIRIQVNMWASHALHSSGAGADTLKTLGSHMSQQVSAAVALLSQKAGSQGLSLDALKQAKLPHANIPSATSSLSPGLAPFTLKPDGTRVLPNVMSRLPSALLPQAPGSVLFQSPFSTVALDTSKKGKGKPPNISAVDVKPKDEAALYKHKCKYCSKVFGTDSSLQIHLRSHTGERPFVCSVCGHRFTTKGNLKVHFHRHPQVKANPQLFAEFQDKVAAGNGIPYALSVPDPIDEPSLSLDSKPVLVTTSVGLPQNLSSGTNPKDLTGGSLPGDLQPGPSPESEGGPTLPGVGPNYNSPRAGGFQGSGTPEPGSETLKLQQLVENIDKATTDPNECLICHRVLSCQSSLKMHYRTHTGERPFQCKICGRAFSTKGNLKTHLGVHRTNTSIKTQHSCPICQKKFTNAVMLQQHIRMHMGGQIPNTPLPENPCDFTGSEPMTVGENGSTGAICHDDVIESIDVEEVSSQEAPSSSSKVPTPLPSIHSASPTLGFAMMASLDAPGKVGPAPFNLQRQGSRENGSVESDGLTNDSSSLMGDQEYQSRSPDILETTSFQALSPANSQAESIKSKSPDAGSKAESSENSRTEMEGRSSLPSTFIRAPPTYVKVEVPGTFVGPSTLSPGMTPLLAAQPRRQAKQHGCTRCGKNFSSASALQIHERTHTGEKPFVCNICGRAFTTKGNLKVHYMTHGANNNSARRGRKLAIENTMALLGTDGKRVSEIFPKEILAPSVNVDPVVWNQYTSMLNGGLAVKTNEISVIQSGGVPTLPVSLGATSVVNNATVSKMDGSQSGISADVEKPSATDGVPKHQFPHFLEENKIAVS
Setting: 8-mer, flanks averaged, mean of replicates
Sequence	E-score
AGTCGGCG	-0.153
CGGTAGGC	-0.301
GCAAAAGA	0.00372
TGACAGAA	0.172
CTCTGCAG	-0.173
GTCGCCCA	-0.244
ACGATAAA	0.227
ATGTCATA	0.342
CCACTAGC	-0.105
CTTTCTTA	0.0955
CTTTTCCA	0.101
ATGTTGCA	0.118
CGGAGTGC	-0.229
AGCGTATA	0.16
ACGGCATG	-0.203
CGATTGCC	-0.174
ACTTCGTG	-0.00622
TCTATGCA	0.218
ACGCTCAT	0.0109
AAGGTGTC	-0.107
GCTTATCC	-0.0728
GGGTCCAC	-0.328
ATCTCAGA	0.0115
ACTCTCCG	0.0118
AAACCGAC	-0.126

Excerpt of the above (block 4):
Sequence	E-score
ACTCTCCG	0.0118
ACGCTCAT	0.0109
CTTTTCCA	0.101
ACGGCATG	-0.203
CTTTCTTA	0.0955
AAACCGAC	-0.126
CCACTAGC	-0.105
ATGTCATA	0.342
AGTCGGCG	-0.153
